Experimental data of several laboratories.
Numbers after ± are the reported error.
Chain of UniProt P48546 (whole entry, looked up): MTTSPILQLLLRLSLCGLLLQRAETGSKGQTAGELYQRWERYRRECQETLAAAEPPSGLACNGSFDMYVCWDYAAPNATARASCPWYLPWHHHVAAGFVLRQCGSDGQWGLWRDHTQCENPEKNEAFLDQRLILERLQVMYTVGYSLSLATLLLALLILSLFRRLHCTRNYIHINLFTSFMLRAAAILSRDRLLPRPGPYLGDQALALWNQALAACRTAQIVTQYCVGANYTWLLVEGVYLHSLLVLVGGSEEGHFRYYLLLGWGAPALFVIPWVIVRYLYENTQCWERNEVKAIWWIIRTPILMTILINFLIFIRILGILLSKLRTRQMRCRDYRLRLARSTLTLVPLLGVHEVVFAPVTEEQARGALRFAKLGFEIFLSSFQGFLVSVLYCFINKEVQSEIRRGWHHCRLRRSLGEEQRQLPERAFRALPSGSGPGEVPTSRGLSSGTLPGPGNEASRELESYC
Chain of UniProt P35372 (whole entry, looked up): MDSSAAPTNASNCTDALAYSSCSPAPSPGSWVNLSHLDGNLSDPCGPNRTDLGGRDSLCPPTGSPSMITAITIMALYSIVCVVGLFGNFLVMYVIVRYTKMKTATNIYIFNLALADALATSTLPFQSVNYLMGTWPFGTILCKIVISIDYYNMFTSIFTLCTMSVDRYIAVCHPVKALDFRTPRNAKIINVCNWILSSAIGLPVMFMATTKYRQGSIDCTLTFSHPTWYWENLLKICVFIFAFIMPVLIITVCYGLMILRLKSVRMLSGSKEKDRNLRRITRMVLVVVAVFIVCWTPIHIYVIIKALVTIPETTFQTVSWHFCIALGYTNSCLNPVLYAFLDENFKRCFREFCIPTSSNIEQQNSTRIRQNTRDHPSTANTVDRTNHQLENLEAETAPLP

Cc1cc(O)cc(C)c1C[C@H](N)C(=O)NCC(=O)NCC(=O)N[C@@H](Cc1ccccc1)C(=O)N[C@H](C(=O)NCC(=O)N[C@@H](C)C(=O)N[C@@H](CCCNC(=N)N)C(=O)N[C@@H](CCCCN)C(=O)N[C@@H](CO)C(=O)N[C@@H](C)C(=O)N[C@@H](CCCNC(=N)N)C(=O)N[C@@H](CCCCN)C(N)=O)[C@@H](C)O
Ki (OPRM1 (Homo sapiens, UniProt P35372); ligand displacement, radioligand; cell membranes): 0.0912 nM

CC[C@H](C)[C@H](NC(=O)[C@H](CCCCN)NC(=O)[C@H](CCCCN)NC(=O)[C@H](CC(C)C)NC(=O)[C@H](Cc1c[nH]c2ccccc12)NC(=O)CN)C(=O)NCC(=O)N[C@@H](CCCCN)C(=O)N[C@@H](CCCCN)C(=O)N[C@H](C(=O)N[C@@H](CCC(=O)O)C(=O)N[C@@H](CCCNC(=N)N)C(=O)N[C@H](C(=O)NCC(=O)N[C@@H](CCC(N)=O)C(=O)N[C@@H](Cc1c[nH]cn1)C(=O)N[C@H](C(=O)N[C@@H](CCCNC(=N)N)C(=O)N[C@@H](CC(=O)O)C(=O)N[C@@H](C)C(=O)N[C@H](C(=O)N[C@H](C(=O)N[C@@H](CCC(N)=O)C(=O)N[C@H](C(=O)N[C@H](C(=O)NCC(=O)N[C@H](C(=O)N[C@@H](C)C(=O)N[C@@H](CCC(N)=O)C(=O)N[C@@H](CCC(N)=O)C(=O)N[C@@H](C)C(=O)N[C@@H](C)C(=O)N[C@@H](CC(N)=O)C(=O)N[C@H](C(=O)N[C@@H](C)C(=O)N[C@@H](C)C(=O)N[C@H](C(=O)N[C@@H](CC(C)C)C(=O)N[C@@H](CCCCN)C(N)=O)[C@@H](C)O)C(C)C)C(C)C)[C@@H](C)CC)[C@@H](C)O)[C@@H](C)CC)[C@@H](C)O)[C@@H](C)O)C(C)C)[C@@H](C)CC
MIC (Gram-positive bacteria, Candida albicans; reference strains, CAMHB): ≥ 1020 µg/mL

Cc1cc(/C=C/C#N)cc(C)c1-n1cnc2cnc(Nc3ccc(C#N)cc3)nc21
EC50 (HIV-1; viral replication, single-round infection; RT mutant K103N): 0.9 ± 0.2 nM

Cc1cn(C2CCC(OC(C(=O)O)P(=O)(O)O)C2)c(=O)[nH]c1=O (racemic)
fold resistance (HIV-1 reverse transcriptase M184V; enzyme activity, inhibitor; with: poly(rA)·oligo(dT), [3H]dTTP; reference: mutant over wild type): 16 fold

CCCCCCCCCCCCCCCC(=O)N[C@@H](CCC(=O)NCCOCCOCCC(=O)NCCOCCOCCC(=O)NCCCC[C@H](NC(=O)[C@H](CC(=O)O)NC(=O)[C@H](CC(C)C)NC(=O)[C@H](Cc1ccc(O)cc1)NC(=O)[C@H](CCCCN)NC(=O)[C@H](CO)NC(=O)[C@H](Cc1ccc(O)cc1)NC(=O)[C@H](CC(=O)O)NC(=O)[C@H](CO)NC(=O)[C@@H](NC(=O)[C@H](Cc1ccccc1)NC(=O)[C@@H](NC(=O)CNC(=O)[C@H](CCC(N)=O)NC(=O)[C@@H](CO)NC(=O)[C@@H](N)Cc1c[nH]cn1)[C@@H](C)O)[C@@H](C)O)C(=O)N[C@@H](CCCNC(=N)N)C(=O)N[C@@H](CCCNC(=N)N)C(=O)N[C@@H](C)C(=O)N[C@@H](CCC(N)=O)C(=O)N[C@@H](CC(=O)O)C(=O)N[C@@H](Cc1ccccc1)C(=O)N[C@H](C(=O)N[C@@H](CCC(N)=O)C(=O)N[C@@H](Cc1c[nH]c2ccccc12)C(=O)N[C@@H](CC(C)C)C(=O)N[C@@H](CC(C)C)C(=O)N[C@@H](CC(N)=O)C(=O)N[C@H](C(=O)NCC(=O)NCC(=O)N1CCC[C@H]1C(=O)N[C@@H](CO)C(=O)N[C@@H](CO)C(=O)NCC(=O)N[C@@H](C)C(=O)N1CCC[C@H]1C(=O)N1CCC[C@H]1C(=O)N1CCC[C@H]1C(=O)N[C@@H](CO)C(N)=O)[C@@H](C)O)C(C)C)C(=O)O
urea (Sprague-Dawley rat, female; subcutaneous, 20 µg/kg once daily, 14 days): 3.87 ± 0.73 mmol/L

CCCCCCCCCCCCCCCC(=O)N[C@@H](CCC(=O)NCCCC[C@H](NC(=O)[C@H](CC(=O)O)NC(=O)[C@H](CO)NC(=O)[C@@H](NC(=O)[C@H](Cc1ccccc1)NC(=O)[C@@H](NC(=O)CNC(=O)[C@H](CCC(N)=O)NC(=O)[C@H](C)NC(=O)[C@@H](Cc1ccc(O)cc1)NC(C)=O)[C@@H](C)O)[C@@H](C)O)C(=O)N[C@@H](CO)C(=O)N[C@@H](CCCCN)C(=O)N[C@@H](Cc1ccc(O)cc1)C(=O)N[C@@H](CC(C)C)C(=O)N[C@@H](CC(=O)O)C(=O)N[C@@H](CCC(=O)O)C(=O)N[C@@H](CCCNC(=N)N)C(=O)N[C@@H](C)C(=O)N[C@@H](C)C(=O)N[C@@H](CCC(N)=O)C(=O)N[C@@H](CC(=O)O)C(=O)N[C@@H](Cc1ccccc1)C(=O)N[C@H](C(=O)N[C@@H](CCC(N)=O)C(=O)N[C@@H](Cc1c[nH]c2ccccc12)C(=O)N[C@@H](CC(C)C)C(=O)N[C@@H](CC(C)C)C(=O)N[C@@H](CCC(=O)O)C(=O)NCC(=O)NCC(=O)N1CCC[C@H]1C(=O)N[C@@H](CO)C(=O)N[C@@H](CO)C(=O)NCC(=O)N[C@@H](C)C(=O)N1CCC[C@H]1C(=O)N1CCC[C@H]1C(=O)N1CCC[C@H]1C(=O)N[C@@H](CO)C(N)=O)C(C)C)C(=O)O
half-life at steady state (multiple ascending dose; human; 25 to 150 µg once daily, geometric mean range): 17.5 to 25.6 h

O=C(NC1CCN(c2ncnc3[nH]cnc23)CC1)c1cccc(NS(=O)(=O)c2ccc(C(F)(F)F)cc2)c1
inhibition (monkeypox virus E1/E12; 50 µM): 8.26%

COCCn1ccn2cc(C(=O)NCc3ccc(F)cc3F)c(=O)c(O)c2c1=O
EC50 (human immunodeficiency virus 1; single-round vector infection; integrase S230N): 4.5 ± 0.6 nM

Nc1c(C(=O)NCc2ccc(F)cc2F)c(=O)n(O)c2ncccc12
EC50 (HIV-1 vector with IN H51Y; single-round infectivity): 1 ± 0.6 nM

CC(C)N1CCn2cc(C(=O)NCc3ccc(F)cc3F)c(=O)c(O)c2C1=O
EC50 (human immunodeficiency virus 1; single-round vector infection; integrase G118R): 20.2 ± 1.4 nM

CC[C@H](C)[C@H](NC(=O)[C@H](CCCN)NC(=O)[C@H](CC(=O)O)NC(=O)[C@H](CC(C)C)NC(=O)C(C)(CC(C)C)NC(=O)[C@@H](NC(=O)[C@H](CO)NC(=O)[C@H](Cc1ccc(O)cc1)NC(=O)[C@H](CC(=O)O)NC(=O)[C@H](CO)NC(=O)[C@@H](NC(=O)[C@H](Cc1ccccc1)NC(=O)[C@@H](NC(=O)CNC(=O)[C@H](CCC(=O)O)NC(=O)C(C)(C)NC(=O)[C@@H](N)Cc1ccc(O)cc1)[C@@H](C)O)[C@@H](C)CC)[C@@H](C)CC)C(=O)N[C@@H](Cc1c[nH]cn1)C(=O)N[C@@H](CCC(N)=O)C(=O)NC(C)(C)C(=O)N[C@@H](CC(=O)O)C(=O)N[C@@H](Cc1ccccc1)C(=O)N[C@H](C(=O)N[C@@H](CCC(=O)O)C(=O)N[C@@H](Cc1ccc(O)cc1)C(=O)N[C@@H](CCCCNC(=O)COCCOCCNC(=O)COCCOCCNC(=O)CC[C@H](NC(=O)CCCCCCCCCCCCCCCCCCC(=O)O)C(=O)O)C(=O)N[C@@H](CC(C)C)C(=O)N[C@@H](CCC(=O)O)C(=O)NCC(=O)NCC(=O)N1CCC[C@H]1C(=O)N[C@@H](CO)C(=O)N[C@@H](CO)C(=O)NCC(=O)N[C@@H](C)C(=O)N1CCC[C@H]1C(=O)N1CCC[C@H]1C(=O)N1CCC[C@H]1C(=O)N[C@@H](CO)C(N)=O)C(C)C (stereo partly shown)
relative potency (GIPR (Homo sapiens, UniProt P48546); cAMP accumulation, agonist; HEK293; without serum albumin; reference: native human GIP, fold more potent): ~20 fold

Cc1cc(/C=C/C#N)cc(C)c1Nc1nc(Nc2ccc(C#N)cc2)ncc1N
EC50 (HIV-1; viral replication, single-round infection; RT mutant E40K): 0.5 ± 0.1 nM

COCC(C)N1CCn2cc(C(=O)NCc3ccc(F)cc3F)c(=O)c(O)c2C1=O (stereo not shown)
EC50 (human immunodeficiency virus 1; single-round vector infection; integrase S230N): 14.4 ± 3.2 nM
